Assay results from different studies.
Each numbered part is a random draw from the data of one study; scales do not carry over between parts.

Set 1
Target: RING finger protein unkempt homolog, zinc fingers 1-6, SBP tag (UNK, Homo sapiens, UniProt Q9C0B0, residues 30-357)
UniProt Q9C0B0, sequence (30-357, looked up): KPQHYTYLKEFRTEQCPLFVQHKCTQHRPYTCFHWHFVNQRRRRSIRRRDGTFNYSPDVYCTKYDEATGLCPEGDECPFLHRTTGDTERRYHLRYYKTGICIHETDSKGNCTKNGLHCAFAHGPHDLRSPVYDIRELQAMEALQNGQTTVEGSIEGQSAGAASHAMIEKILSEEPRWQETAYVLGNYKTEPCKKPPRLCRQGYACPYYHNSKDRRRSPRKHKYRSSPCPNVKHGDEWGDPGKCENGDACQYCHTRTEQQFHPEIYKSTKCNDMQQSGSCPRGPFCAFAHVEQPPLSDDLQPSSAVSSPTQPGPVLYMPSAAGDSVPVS
Technique: RNA Bind-n-Seq
Molecule type: RNA
Sample: in vitro
Tested at: 100 nM
Setting: RNA with constant flanks, vertebrate orthologous sites, ends assumed
Reference: input RNA pool
Direction: higher = stronger binding
Shared flanks, not repeated: GGGAGUUCUACAGUCCGACGAUC … CAACAGAGGAUUGAGCAUCA
| Strand | bound/input enrichment |
| --- | --- |
| AAUGGCUUUUGCUUCAUGAAGAAGAGUAAAAAACAGUCCCCUCAGUUAAAAAUGCCUAAAUAGCUAUUUUAAAAAUCAGGAUGUUUAAAUUUUGUAAAUCACCUGAUGUCACUACACACC | 0.692 ratio |
| CUACAAUAAUGAAAACCUACCAGAAAUUUUUUUUAUUUUUCAUUUUCCCUUAGGCAUACUUAGCCUUUUUCUCCCCAGGCAGAUGAUUCUGAGUGUGCGAGUGUGUGUGCACAUGUUACA | 0.691 ratio |
| AUCGUGUUUGCUUUUUACCGCCUCAAUGAGGUCAAGUCUCCCUUGGCAUUUGGUUGGUACUAGAGCCAGUCAUACCUAAUGUGUCUUUCCACUUUUCAUUUCUUUCACUCAUAGUCAUCC | 0.873 ratio |
| CAGCUGAUUCACUCAUUGGGAGAGCUGCACAUAUAGCUGUUCUUGAUUCAGAAAUAUUUUUAGAGAAAUUCUUUCUGGUUGCUGCCCUUAAGUAUUUCCAAUAGAAUGAAAGCAUUGUUA | 0.677 ratio |
| CCUACAAUAAUGAAAACCUACAGGAAUUUUUUUAUUUUUCAUUUUCCCCUUAGGUAUACUUAGUCUUUUUUUUCCCCCAGGCAGAUCAUUCUGAGUGUGCGAGUGUGUGUGCACAUGUUA | 3.53 ratio |
| ACUCUAGUUCUUAACAACCGACACUCCUAAAAGAGUUAGAAAAAAGUUUACAACAUAAUCUAGUUUACAAAGAAGUCUUGUGCUAGAAUACUUUUUAAAAAGUAUUUUUGAAUACCAUUA | 0.629 ratio |
| CUCCUCUUAAUCCCAUCUCAUCUGUUUCAUAGUGCUGCAAUUCCACCUUCAGCCUUAUUUUUAGUGAACUUAUUCUAAUUCUAGAGAAACUUCCAGUGGAUACUGUGAGCUAUAUGGAGA | 1.89 ratio |
| UUUCCUUUUUAUUAUGAGUUUCUUUUUUUUUUCCAUUUGCUGAAGUACGCUAUACCAAAUCAGUGAUUGUUAACAAUAAAUUGAUCUGUUAUGGACGUUGCUUAGUGACAUGCAGUUCUU | 0.508 ratio |
| CUGAGGCUUUGUAUUUGGCUGCACUUGCAUAAGCUGCUACAAAUAGAAUAAAGAAUUUCAUAGCCUGUAUCUAUCAUUUAGAUGCAUGGUCAAUGGGCUUUGCACACAAUGGGUUUGGAG | 1.73 ratio |
| CAGGGAGAAGAGUUCACAAACUCAAAGGAAAACUAUUAAGAGUUUCUAAUAGUUAAAAGCUAGGAAAGAUUAGGACAACUUUACAAAUGAGCAAUUAAAAAGAAAAAGAAAAAGGAUAUG | 0.74 ratio |
| UUCUUUUUACUUCCUUAUUUACUCCUUCCUUCCUUCUUUUCUUUCAUUUUUUUUUUUUUGUAGUUGUUGUUACCCACGCCAUUUUACGUCUCCUUCACUGAAGGGCUAGAGUUUUAACUU | 2.68 ratio |

Set 2
Target: Histone acetyltransferase KAT6A, winged helix 1, GST fusion (KAT6A, Homo sapiens, UniProt Q92794, residues 1-85)
Technique: protein binding microarray
Molecule type: double-stranded DNA, one strand shown
Sample: in vitro
Tested at: not given
Setting: 8-mer, flanks averaged, mean of 2 arrays, mostly near background
Reference: not given
Direction: higher = stronger binding
Target sequence (chain): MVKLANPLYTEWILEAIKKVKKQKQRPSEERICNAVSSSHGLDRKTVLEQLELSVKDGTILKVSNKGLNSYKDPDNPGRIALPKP
| Strand | E-score |
| --- | --- |
| CCTCACCA | -0.241 |
| GGTTAGGA | -0.168 |
| CGGTCGTC | 0.2 |
| GCCGATGA | 0.171 |
| AACGTTAG | 0.111 |
| ATTGTGCG | 0.171 |
| CAGACGCG | 0.311 |
| CATGGACC | -0.0658 |
| AGGTACAT | -0.116 |
| CTGTATAA | -0.0665 |
| CTGTTACC | -0.0138 |
| GAAATCAC | -0.0259 |
| TAATCTAA | -0.0275 |
| ACCTGCGG | 0.282 |
| TGAACCCA | -0.0357 |
| AAGTGGAG | -0.239 |
| GTATGGAA | -0.135 |
| TATGGTGA | -0.0642 |
| GCACGGCA | 0.313 |
| CTCTTTTC | -0.104 |

Set 3
Target: RNA binding protein fox-1 homolog 2, RRM domain, GST-SBP tag (RBFOX2, Homo sapiens, UniProt O43251-10, residues 100-194)
Technique: RNA Bind-n-Seq
Molecule type: RNA
Sample: in vitro
Tested at: 365 nM
Setting: natural RNA segment, single round, ends assumed
Reference: no-protein control
Direction: higher = stronger binding
Shared flanks, not repeated: GGGAGUUCUACAGUCCGACGAUC … UGGAAUUCUCGGGUGCCAA
Construct (chain): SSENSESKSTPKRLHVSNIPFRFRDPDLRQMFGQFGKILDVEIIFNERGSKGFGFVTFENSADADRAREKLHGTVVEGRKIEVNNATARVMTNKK
| Strand | RBNS enrichment (R) |
| --- | --- |
| GCAGCCUCUUCUGUCCCUUUCAGUCAUUUGCUGUACUUCCCUGUGGCACGUUACCAUGGAAGCCGCUCCAGGGUGGGUCAGGGUGCAAGCUGCUGGUGAGGUUUGGAAGC | 0.224 |
| GUCUUUGAGCAAGUAGGCAAGAUAAGCUCUUCCUUCGUCACAGCCAUGACCAUCAGGUUAGUAACCGAGACUUUGCCCUGGUGAGCUGAGAGUAGACCUGGUUACCGGCA | 0.727 |
| ACCAUGGUUCUGAUUGUUGUGUAUAUUUUUCUAAAGGCUGAAUAAAGCUAUCUAUGAAUGUGAACAAUGGGUCUACGUCUGUUGUUUUUAAGUUUUAAGUUUGAAACCAG | 0.504 |
| UUUGGCAUUCUUACUGGAGCUGCAGACAGAAAUCUACAAAGACAAAAGUAAACAAAAUUAAGUUAUUAUUCCACUGUUAGGAAUGGAAAUAAACUUGUGAAGUCUGUUUA | 0.439 |
| GCAGAGCAGGAGGGGGCCUGUGCUUCUCGGGGUCUGCACCCCAGGCACAGCGGUGUCACCCCGCAGGACCGCGGGCCUGCCCCAACCCCCAGCAUUCCCGGGUGGGCCCA | 0.696 |
| CUUCAGCUCAGCGGCAGCCCCGAAAUUGUUAAGGCCCGUACUUUUCCUGCCACUUGGUCUGACCCUGGGCCUCUUGUCUUUGGCUUGAACAUUAAGCUAUUUAACCCUCA | 0.488 |
| AAGAUAUUGGGAGAAAACAAACUGUACCACAACAAAUCUUAAGUUUCAAGGCUCUCCUAUAGGGAGAAACAUGGCCAAAAAGACAGGAAGAACUGUGGCUUGUAACUCAA | 0.31 |
| GGGCGUGCGGCUCAGAGGAGACCCUACGAACGCCUAAGAGCCAGGAUCCUCCCAGCCCCCAGCCCGCCACCCUUCCAGCACUCCUCUCUAGAACCGACGACCACACACCG | 0.342 |
| CGCCUAAAGUGCAGCAGCAGCUCCUCUCAAGCUCACUCUCUAGGUCUCCAGGGUAGGAGUGUUUUUCUAGCAAGAAUCUUAGUCAGGAGUAAGCUCUGUGCGAGAGAUCU | 0.344 |
| ACUUAACAGGUUCUUUGUCAACAUGGAGACAUUAACAUGGUAGCUCACUGACUGGGUCUCUUCAGCUGUCAUCAGGCUUCCACCAGAAGAACAAACAACAACAAAAAAAG | 0.483 |
| CUGCCCAGCUUCCAGUUUUUAAAGAGAUGAACAGCUCUCACUUCCUGACUCAGUUUCUCUUGUUGGGUGGGGGCCUUGUGCCACAACCUGCAUGGGGUGCUAGGGUUUAA | 0.487 |
| CUGCGCUUGAAGAUGUAUGAGUUUGCAGGGCGGCUGGUGGGCAAGUGUUUGUAUGAAUCCUCUCUAGGGGGAGCCUACAAGCAGUUGGUCCGUGCCCGGUUCACUCGGUC | 0.508 |

Set 4
Target: Ras GTPase-activating protein-binding protein 1, RRM domain (G3BP1, Homo sapiens, UniProt Q13283)
UniProt Q13283, sequence (whole entry, looked up): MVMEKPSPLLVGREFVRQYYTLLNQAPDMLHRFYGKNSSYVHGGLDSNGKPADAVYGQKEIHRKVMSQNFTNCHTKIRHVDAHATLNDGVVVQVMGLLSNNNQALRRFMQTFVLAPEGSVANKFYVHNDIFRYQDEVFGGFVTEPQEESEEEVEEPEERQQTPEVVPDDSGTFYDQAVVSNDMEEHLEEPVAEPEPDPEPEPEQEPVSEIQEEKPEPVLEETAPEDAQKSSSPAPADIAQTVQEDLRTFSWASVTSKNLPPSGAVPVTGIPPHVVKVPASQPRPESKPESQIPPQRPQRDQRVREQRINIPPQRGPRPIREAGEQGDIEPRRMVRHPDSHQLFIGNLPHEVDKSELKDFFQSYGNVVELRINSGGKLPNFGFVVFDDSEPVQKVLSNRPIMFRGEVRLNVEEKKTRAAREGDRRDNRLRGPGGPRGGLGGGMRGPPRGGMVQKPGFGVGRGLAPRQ
Technique: RNA Bind-n-Seq
Molecule type: RNA
Sample: in vitro
Tested at: 1 µM
Setting: whole 134-nt RNA, ends assumed
With: 150 mM KCl
Reference: input library
Direction: higher = stronger binding
Shared flanks, not repeated: GGGAGUUCUACAGUCCGACGAUC … UGGAAUUCUCGGGUGUCAAGG
| Strand | log2 enrichment |
| --- | --- |
| AAGUCCUGUGCUACACAUCGUAUGUACCGAAUCGGUUUUUUUGGAAAAAAAGGUGGAAAGUAUUAUGUUACGCCGUUCGGAUCUGCACUU | -0.423 |
| UCAAGUCCUGUGCUACACAUCGUAUGUACCGAAUCGGGUGGGUUUGGGUUUGGGAAAGUAUUAUGUUACGCCGUUCGGAUCUGCACUUCC | 0.536 |
| UGGCCCUGGUGGCAUGCGGGGAGGAAGAGGUUGCCUCAUGGAUCGUGGUGGUCCCGGUGGAAUGUUCAGAGGUGGCCGUGGUGGAGACAG | 0.729 |
| ACCAUGCAGGUGGGGAUCUUUGGGAAGUGGGGCAAGGGGGGGAUAGGGAGGGGGGUAACACUUUGGGAACAGGUGGUCCCAGGUCGUUUC | -0.517 |
| UCCUGUGCUACACAUCGUAUGUACCGAAUCGGGUUUGGGUUUUUUUGGGUUUUUUUGGGAAAGUAUUAUGUUACGCCGUUCGGAUCUGCA | -0.0201 |
| AAGUCCUGUGCUACACAUCGUAUGUACCGAAUCGGGUUUGGGUUUGGGUUUUUGGGAAAGUAUUAUGUUACGCCGUUCGGAUCUGCACUU | 0.585 |
| UCCUCAAGUCCUGUGCUACACAUCGUAUGUACCGAAUCGGAGGUGGUUUGGAAAGUAUUAUGUUACGCCGUUCGGAUCUGCACUUCCAGC | -0.249 |
| UGGAGCUACAGAUGGUGUCCUUCCUGCCAGGUGUGUGUGGAGGCCAGUAUGAAGCUGAAAAAGCAGGUGACAGUGUGUGGGGCUGCCAUC | -0.157 |
| UUUAGUGACUUUGGAUGAAGUAACUGAAGAGGAUGAAGACUCUCUGGCGGAUUUUAACAACCUUAAAGAAGAGCUUAAUUUUGUUACUGU | -0.298 |
| ACCAUGCAGGUGGGCAUCUUUGGGAAGUGGGGCAAGGGGGGGAUAGGGAGGGGGGUAACACUUUGGAAACAGGUGGUCCCAGGUCGUUUC | -0.399 |

A few entries again (set 4):
| Strand | log2 enrichment |
| --- | --- |
| UUUAGUGACUUUGGAUGAAGUAACUGAAGAGGAUGAAGACUCUCUGGCGGAUUUUAACAACCUUAAAGAAGAGCUUAAUUUUGUUACUGU | -0.298 |
| UGGAGCUACAGAUGGUGUCCUUCCUGCCAGGUGUGUGUGGAGGCCAGUAUGAAGCUGAAAAAGCAGGUGACAGUGUGUGGGGCUGCCAUC | -0.157 |
| ACCAUGCAGGUGGGGAUCUUUGGGAAGUGGGGCAAGGGGGGGAUAGGGAGGGGGGUAACACUUUGGGAACAGGUGGUCCCAGGUCGUUUC | -0.517 |
